Assay results from different studies.
A part holds a random share of what one study measured.
Sequence of UniProt P41143 (whole entry, looked up): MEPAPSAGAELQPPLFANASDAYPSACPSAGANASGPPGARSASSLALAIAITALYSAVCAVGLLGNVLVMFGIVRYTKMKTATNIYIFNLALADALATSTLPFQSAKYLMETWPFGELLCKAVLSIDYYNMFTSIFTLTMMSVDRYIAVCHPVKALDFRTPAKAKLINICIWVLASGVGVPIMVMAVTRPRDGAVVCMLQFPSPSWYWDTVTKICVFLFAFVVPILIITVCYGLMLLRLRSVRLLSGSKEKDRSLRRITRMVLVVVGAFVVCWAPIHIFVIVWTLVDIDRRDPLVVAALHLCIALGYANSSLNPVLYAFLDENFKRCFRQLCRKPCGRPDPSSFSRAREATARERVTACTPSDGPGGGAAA
Sequence of UniProt P21917 (whole entry, looked up): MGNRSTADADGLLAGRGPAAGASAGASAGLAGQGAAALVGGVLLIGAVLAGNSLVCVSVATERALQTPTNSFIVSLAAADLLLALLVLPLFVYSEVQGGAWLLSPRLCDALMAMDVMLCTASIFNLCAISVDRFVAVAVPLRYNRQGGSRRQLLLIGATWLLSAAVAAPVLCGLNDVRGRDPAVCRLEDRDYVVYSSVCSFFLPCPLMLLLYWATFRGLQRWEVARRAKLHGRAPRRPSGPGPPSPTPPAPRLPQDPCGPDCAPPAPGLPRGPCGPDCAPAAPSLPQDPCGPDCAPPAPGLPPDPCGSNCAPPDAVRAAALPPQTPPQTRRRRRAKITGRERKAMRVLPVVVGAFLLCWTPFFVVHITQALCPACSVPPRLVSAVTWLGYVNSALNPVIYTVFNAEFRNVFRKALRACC
Sequence of UniProt P07550 (whole entry, looked up): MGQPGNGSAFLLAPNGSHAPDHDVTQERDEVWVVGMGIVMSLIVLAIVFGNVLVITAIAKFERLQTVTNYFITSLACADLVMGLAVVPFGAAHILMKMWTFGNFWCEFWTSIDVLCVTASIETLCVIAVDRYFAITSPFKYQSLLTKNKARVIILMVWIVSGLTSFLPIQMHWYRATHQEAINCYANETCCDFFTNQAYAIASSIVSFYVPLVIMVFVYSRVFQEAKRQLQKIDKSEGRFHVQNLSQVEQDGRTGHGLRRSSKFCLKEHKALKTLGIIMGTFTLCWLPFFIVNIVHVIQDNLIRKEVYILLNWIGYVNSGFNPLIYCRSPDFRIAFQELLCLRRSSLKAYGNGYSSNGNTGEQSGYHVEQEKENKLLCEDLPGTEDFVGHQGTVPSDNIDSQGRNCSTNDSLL
Sequence of UniProt P14416 (whole entry, looked up): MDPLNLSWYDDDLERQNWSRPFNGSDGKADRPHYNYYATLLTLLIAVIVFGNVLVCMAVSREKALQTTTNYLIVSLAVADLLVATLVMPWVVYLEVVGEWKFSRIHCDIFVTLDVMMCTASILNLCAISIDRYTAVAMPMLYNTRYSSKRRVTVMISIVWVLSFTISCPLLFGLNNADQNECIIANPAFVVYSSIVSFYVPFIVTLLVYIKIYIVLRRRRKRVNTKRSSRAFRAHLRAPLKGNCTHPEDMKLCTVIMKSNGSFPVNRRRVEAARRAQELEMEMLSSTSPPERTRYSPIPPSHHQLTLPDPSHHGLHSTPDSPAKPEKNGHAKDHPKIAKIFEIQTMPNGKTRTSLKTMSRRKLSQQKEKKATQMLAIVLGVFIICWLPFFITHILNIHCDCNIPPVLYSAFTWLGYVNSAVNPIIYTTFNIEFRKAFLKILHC
Sequence of UniProt P35462 (whole entry, looked up): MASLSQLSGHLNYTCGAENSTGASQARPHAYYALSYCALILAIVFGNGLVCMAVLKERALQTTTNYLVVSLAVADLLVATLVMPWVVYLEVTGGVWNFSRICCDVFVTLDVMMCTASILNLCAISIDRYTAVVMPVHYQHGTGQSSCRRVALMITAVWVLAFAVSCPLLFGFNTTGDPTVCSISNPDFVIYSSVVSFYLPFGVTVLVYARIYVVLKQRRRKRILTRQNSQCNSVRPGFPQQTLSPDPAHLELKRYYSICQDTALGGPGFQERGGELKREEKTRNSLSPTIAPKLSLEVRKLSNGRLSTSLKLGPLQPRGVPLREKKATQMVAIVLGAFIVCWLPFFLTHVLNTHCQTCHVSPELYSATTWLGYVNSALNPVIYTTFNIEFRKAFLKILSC
Sequence of UniProt P08913 (whole entry, looked up): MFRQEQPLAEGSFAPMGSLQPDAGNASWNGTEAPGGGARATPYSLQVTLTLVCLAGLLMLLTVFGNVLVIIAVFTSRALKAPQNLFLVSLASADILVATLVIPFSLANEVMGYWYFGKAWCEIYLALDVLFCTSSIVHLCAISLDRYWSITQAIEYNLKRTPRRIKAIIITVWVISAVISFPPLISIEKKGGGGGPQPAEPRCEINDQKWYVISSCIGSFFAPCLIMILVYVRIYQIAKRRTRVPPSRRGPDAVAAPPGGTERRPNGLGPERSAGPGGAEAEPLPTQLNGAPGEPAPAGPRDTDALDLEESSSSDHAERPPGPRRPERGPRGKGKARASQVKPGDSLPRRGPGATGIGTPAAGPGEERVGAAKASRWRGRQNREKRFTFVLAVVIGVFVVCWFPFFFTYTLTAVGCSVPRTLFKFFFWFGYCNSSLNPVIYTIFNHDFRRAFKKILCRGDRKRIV
Sequence of UniProt Q99720 (whole entry, looked up): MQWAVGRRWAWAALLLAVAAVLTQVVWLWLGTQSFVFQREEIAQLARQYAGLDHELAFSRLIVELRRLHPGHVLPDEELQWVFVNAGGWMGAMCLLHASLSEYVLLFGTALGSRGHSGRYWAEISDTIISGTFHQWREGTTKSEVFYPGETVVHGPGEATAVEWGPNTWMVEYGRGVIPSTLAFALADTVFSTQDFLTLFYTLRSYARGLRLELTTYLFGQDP
Sequence of UniProt P28223 (whole entry, looked up): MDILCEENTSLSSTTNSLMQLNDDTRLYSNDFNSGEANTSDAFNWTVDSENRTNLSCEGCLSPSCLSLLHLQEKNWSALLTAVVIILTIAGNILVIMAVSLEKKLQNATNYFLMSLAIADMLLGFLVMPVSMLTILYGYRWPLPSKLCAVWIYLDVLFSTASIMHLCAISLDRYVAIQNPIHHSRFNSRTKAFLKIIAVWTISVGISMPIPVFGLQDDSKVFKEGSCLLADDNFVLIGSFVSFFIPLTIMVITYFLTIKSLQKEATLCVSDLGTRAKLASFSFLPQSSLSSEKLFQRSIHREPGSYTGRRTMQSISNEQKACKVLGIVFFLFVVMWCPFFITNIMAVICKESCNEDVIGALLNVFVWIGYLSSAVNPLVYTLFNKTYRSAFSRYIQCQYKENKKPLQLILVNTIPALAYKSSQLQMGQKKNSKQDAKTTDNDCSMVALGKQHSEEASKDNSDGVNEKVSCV
Sequence of UniProt P08588 (whole entry, looked up): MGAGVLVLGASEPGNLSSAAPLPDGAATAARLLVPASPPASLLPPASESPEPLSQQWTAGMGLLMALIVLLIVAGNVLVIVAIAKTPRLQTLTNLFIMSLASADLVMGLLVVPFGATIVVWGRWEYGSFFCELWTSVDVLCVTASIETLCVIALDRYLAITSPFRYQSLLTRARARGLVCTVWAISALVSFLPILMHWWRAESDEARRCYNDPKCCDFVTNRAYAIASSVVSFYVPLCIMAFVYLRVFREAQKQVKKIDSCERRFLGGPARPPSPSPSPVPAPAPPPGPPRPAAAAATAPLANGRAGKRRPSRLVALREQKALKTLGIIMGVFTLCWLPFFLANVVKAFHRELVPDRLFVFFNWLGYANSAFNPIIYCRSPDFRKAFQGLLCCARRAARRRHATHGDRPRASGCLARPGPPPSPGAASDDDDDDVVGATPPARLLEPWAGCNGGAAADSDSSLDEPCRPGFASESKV
Sequence of UniProt P41240 (whole entry, looked up): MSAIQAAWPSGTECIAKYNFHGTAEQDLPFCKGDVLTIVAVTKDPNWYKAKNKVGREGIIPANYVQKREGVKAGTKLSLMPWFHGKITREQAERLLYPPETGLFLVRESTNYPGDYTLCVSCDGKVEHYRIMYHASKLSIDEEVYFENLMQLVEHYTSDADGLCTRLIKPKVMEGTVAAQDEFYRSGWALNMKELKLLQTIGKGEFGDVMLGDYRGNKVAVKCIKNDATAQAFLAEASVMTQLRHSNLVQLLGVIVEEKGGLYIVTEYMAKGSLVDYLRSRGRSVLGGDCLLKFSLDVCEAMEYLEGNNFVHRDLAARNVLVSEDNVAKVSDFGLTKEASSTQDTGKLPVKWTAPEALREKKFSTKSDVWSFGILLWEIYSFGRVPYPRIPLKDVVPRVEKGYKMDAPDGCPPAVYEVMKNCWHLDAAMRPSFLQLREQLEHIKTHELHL

Study 1
Structure (SMILES): COc1ccc2c(c1)/C(=C/c1cnc[nH]1)C(=O)N2
Observed: enzyme activity
Mode: inhibitor
Tested at: 0.5 µM
Baseline: control
Endpoint: remaining activity
target = RPS6KB1 (Homo sapiens, UniProt P23443); result = 98.2%
target = CSK (Homo sapiens, UniProt P41240); result = 96.1%
target = PRKCE (Homo sapiens, UniProt Q02156); result = 99%
target = PRKCG (Homo sapiens, UniProt P05129); result = 95.2%
target = GRK6 (Homo sapiens, UniProt P43250); result = 85.2%
target = SRPK3 (Homo sapiens, UniProt Q9UPE1); result = 96.2%
target = Aurora kinase C (AURKC, Homo sapiens, UniProt Q9UQB9); result = 67.8%
target = MYLK (Homo sapiens, UniProt Q15746); result = 80.9%
target = CSF1R (Homo sapiens, UniProt P07333); result = 88.7%
target = SGK1 (Homo sapiens, UniProt O00141); result = 71.5%
target = PIM2 (Homo sapiens, UniProt Q9P1W9); result = 97.2%

Study 2
Compound: Cn1cncc1[C@](O)(COc1ccc(C#N)cc1-c1ccc(OC(F)(F)F)cc1)c1ccc(C#N)cc1
Observed: binding
Technique: radioligand binding
Tested at: 10 µM
Endpoint: inhibition
target = ADRB2 (Homo sapiens, UniProt P07550); result = 0.0774%
target = DRD4 (Homo sapiens, UniProt P21917); result = -1.32%
target = DRD3 (Homo sapiens, UniProt P35462); result = -9.46%
target = HTR6 (Homo sapiens, UniProt P50406); result = 6.74%
target = OPRD1 (Homo sapiens, UniProt P41143); result = -0.182%
target = CHRM5 (Homo sapiens, UniProt P08912); result = -4.82%
target = HTR2B (Homo sapiens, UniProt P41595); result = -5.75%
target = SIGMAR1 (Homo sapiens, UniProt Q99720); result = 42.5%
target = TMEM97 (Homo sapiens, UniProt Q5BJF2); result = 40.3%
target = HTR2C (Homo sapiens, UniProt P28335); result = 0.26%
target = HTR2A (Homo sapiens, UniProt P28223); result = -0.429%
target = HRH3 (Homo sapiens, UniProt Q9Y5N1); result = 5.92%
target = ADRA2A (Homo sapiens, UniProt P08913); result = 32.2%
target = ADRA1A (Homo sapiens, UniProt P35348); result = -7.74%
target = ADRB1 (Homo sapiens, UniProt P08588); result = 4.25%
target = DRD2 (Homo sapiens, UniProt P14416); result = -16.5%
target = CHRM1 (Homo sapiens, UniProt P11229); result = -4.07%

Study 3
Cell line: HEK-293T-ACE2-TMPRSS2
Technique: cell count
Tested at: 10 µM
Endpoint: viability
Compound = O=C(Cc1ccc2c(c1)OCCO2)Nc1ccc(-c2nccs2)cc1; result = 109%
Compound = COc1cccc(F)c1-c1ccc2cc[nH]c(=O)c2c1; result = 70%
Compound = COc1ccc(C(CC(=O)NCc2ncc[nH]2)c2ccccc2)cc1 (stereo not drawn); result = 109%
Compound = O=C1c2ccccc2C(=O)N1Cn1ncc(Cl)c(Cl)c1=O; result = 83%
Compound = O=C(NCC1C[C@H]2C=C[C@H]1C21CC1)c1coc(CN2CCN(Cc3ccccc3)CC2)n1 (stereo partly drawn); result = 108%
Compound = CCCCN1COc2c(cc(Cl)c3cccnc23)C1; result = 137%
Compound = CCC(CC)C(=O)N1C[C@@H](CO)[C@H](c2nc(COC)no2)C1; result = 100%
Compound = CCSc1nc(CC(=O)N2CCC[C@H]2CO)cs1; result = 67%
Compound = O=C(NCC1CCCN(Cc2nc(-c3ccccc3)cs2)C1)c1cccs1 (stereo not drawn); result = 102%

Study 4
Cell line: A-375
Tested at: 100 µM
Time: 18 h
Endpoint: viability
Compound = NCC(CC(=O)O)c1ccc(Cl)cc1 (stereo not drawn); result = 92.4%
Compound = CC(NC(C)(C)C)C(=O)c1cccc(Cl)c1 (stereo not drawn); result = 88.4%
Compound = CC(C)N(CCNC(=O)CN1CCCC1=O)C(C)C; result = 94.1%
Compound = CNC(=O)Oc1ccccc1OC(C)C; result = 85.2%
Compound = C[C@@H]1CC[C@H]2[C@@H](C)C(=O)O[C@@H]3O[C@@]4(C)CC[C@@H]1[C@]32OO4; result = 98.5%
Compound = Cn1c(CCCC(=O)O)nc2cc(N(CCCl)CCCl)ccc21; result = 86%
Compound = N#Cc1nn(-c2c(Cl)cc(C(F)(F)F)cc2Cl)c(N)c1[S+]([O-])C(F)(F)F (stereo not drawn); result = 44.6%
Compound = CC(C)N(CCC(C(N)=O)(c1ccccc1)c1ccccn1)C(C)C (stereo not drawn); result = 69.1%

A few entries again (study 1):
target = Aurora kinase C (AURKC, Homo sapiens, UniProt Q9UQB9); result = 67.8%
target = MYLK (Homo sapiens, UniProt Q15746); result = 80.9%
target = SRPK3 (Homo sapiens, UniProt Q9UPE1); result = 96.2%
target = PRKCG (Homo sapiens, UniProt P05129); result = 95.2%
